# Measurements from different studies.
# Every numbered part comes from another study and shows a few of its results, in no order. Several values in a cell are separate wells, animals, samples, runs or records.
# UniProt P36897, sequence (whole entry, looked up): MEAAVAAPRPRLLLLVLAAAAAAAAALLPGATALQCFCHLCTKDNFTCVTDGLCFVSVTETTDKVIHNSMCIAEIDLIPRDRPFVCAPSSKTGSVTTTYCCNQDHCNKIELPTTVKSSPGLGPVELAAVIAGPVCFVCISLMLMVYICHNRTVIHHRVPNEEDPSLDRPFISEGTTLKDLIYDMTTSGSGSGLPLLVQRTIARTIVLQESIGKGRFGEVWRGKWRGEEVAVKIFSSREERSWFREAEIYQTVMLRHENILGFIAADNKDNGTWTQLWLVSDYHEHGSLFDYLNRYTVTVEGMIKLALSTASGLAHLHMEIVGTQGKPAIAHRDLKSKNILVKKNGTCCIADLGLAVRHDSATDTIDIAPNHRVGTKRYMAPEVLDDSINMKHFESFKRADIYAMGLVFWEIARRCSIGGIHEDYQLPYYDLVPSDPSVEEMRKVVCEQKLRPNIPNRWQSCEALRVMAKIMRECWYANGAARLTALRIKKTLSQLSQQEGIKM
# UniProt P05771, sequence (whole entry, looked up): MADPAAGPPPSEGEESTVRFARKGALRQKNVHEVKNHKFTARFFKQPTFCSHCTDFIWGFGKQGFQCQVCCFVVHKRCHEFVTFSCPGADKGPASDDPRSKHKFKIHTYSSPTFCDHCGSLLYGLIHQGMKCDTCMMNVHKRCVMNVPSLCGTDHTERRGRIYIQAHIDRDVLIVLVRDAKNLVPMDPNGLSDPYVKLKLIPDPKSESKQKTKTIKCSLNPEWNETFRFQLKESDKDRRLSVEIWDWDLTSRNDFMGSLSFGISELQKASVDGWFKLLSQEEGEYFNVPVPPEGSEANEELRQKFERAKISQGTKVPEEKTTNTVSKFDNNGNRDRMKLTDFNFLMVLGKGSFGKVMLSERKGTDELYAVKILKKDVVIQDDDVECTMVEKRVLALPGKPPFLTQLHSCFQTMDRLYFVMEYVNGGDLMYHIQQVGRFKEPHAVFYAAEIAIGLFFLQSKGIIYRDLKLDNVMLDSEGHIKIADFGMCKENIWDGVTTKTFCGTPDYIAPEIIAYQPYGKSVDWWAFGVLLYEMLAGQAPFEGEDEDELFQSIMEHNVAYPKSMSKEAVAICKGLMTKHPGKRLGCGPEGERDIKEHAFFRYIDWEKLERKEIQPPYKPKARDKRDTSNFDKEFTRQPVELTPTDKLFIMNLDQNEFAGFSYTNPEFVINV
# UniProt O94804, sequence (whole entry, looked up): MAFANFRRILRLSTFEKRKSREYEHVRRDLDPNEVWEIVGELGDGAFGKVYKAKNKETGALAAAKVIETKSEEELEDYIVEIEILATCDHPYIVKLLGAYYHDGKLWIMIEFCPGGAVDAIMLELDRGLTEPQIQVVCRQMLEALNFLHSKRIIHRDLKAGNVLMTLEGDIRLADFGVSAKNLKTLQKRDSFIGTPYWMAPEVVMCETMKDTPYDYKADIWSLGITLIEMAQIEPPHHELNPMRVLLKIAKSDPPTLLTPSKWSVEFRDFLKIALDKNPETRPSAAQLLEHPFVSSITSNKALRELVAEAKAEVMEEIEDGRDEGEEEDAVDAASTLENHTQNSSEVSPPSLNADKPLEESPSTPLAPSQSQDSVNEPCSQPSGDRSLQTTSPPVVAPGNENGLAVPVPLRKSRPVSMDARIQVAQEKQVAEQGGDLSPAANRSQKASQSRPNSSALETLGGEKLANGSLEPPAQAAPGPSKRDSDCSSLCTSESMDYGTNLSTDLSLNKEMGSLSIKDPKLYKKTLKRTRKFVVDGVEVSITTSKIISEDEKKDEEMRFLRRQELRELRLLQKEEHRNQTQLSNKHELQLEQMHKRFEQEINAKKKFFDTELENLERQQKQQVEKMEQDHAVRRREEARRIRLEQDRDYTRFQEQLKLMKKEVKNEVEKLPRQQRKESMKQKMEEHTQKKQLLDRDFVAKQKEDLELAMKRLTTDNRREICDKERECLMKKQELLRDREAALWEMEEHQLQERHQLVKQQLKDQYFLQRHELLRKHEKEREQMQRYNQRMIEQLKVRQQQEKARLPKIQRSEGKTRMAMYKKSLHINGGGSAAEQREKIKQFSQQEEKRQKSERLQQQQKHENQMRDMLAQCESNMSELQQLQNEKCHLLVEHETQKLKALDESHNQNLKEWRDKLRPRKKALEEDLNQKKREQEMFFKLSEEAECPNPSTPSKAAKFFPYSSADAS
# UniProt Q9NQU5, sequence (whole entry, looked up): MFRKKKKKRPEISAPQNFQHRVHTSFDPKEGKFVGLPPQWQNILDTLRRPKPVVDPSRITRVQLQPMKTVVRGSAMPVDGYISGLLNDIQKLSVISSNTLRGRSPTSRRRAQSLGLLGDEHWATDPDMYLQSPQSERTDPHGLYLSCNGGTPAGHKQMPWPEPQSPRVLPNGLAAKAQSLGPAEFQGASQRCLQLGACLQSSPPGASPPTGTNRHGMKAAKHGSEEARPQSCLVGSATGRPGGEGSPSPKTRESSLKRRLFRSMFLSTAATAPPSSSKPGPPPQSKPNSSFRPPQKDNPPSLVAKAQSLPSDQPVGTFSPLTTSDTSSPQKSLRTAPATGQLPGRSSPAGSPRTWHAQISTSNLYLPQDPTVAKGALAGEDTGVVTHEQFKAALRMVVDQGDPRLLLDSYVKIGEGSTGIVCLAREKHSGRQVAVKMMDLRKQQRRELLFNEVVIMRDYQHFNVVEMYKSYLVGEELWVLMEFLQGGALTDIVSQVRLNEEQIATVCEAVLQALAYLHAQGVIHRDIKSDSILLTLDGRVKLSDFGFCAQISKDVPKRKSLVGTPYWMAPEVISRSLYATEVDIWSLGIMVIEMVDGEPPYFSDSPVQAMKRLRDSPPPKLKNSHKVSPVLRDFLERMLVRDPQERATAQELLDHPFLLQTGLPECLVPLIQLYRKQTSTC
# UniProt O14920, sequence (whole entry, looked up): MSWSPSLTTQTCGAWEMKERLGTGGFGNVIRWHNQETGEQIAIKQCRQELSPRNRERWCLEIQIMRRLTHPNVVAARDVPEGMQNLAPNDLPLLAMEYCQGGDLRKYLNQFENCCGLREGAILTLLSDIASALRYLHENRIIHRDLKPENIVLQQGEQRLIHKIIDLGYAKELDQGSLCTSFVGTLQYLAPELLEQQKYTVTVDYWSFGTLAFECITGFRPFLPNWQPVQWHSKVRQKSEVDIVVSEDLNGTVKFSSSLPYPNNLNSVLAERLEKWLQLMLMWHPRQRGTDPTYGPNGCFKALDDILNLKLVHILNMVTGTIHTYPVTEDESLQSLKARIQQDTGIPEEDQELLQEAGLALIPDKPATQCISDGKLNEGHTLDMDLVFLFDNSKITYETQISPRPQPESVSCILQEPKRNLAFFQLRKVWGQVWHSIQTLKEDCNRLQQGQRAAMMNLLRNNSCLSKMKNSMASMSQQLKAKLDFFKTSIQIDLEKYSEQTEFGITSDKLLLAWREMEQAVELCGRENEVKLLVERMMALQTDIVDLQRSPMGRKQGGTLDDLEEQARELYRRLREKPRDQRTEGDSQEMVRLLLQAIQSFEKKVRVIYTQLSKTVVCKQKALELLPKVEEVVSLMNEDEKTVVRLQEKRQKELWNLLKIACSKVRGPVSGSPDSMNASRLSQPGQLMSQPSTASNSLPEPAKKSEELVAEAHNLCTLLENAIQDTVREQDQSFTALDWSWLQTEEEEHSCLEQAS
# UniProt P51955, sequence (whole entry, looked up): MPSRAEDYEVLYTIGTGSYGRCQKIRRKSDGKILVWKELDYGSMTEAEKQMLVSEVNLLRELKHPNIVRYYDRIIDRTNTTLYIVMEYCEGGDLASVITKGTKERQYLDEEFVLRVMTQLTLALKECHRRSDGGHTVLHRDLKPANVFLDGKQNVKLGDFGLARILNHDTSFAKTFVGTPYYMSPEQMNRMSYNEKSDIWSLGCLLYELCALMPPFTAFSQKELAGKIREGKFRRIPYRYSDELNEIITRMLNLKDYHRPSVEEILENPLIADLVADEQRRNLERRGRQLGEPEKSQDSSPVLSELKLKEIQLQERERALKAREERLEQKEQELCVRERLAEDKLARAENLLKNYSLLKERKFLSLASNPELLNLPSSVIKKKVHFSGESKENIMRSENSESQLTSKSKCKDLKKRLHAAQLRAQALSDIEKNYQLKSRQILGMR
# UniProt P37173, sequence (whole entry, looked up): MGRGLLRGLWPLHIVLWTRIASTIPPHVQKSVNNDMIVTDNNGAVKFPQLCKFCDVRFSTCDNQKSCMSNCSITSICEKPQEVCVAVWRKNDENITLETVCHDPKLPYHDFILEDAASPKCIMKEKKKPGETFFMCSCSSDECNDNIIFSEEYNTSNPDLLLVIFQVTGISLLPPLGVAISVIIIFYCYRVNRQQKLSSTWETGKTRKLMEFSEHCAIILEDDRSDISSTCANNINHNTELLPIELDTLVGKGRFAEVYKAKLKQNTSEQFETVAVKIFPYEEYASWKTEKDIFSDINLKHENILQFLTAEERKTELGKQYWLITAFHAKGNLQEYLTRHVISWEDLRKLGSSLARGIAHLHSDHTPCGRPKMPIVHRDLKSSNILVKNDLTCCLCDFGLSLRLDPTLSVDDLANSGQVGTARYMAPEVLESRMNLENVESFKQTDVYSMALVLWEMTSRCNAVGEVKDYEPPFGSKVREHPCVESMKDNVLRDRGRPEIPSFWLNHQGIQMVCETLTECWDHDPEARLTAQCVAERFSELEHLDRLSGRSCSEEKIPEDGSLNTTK
# UniProt Q9UIK4, sequence (whole entry, looked up): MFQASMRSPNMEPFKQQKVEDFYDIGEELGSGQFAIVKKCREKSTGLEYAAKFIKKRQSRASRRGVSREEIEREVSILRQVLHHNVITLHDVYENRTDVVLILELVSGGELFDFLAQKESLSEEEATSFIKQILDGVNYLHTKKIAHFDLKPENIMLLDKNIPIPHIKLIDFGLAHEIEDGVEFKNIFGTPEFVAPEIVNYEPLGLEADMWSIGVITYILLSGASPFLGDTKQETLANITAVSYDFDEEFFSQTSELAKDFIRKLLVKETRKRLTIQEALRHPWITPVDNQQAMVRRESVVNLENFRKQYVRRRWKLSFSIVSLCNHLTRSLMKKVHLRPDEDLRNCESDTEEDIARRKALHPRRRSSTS

# Sample 1
# Technique: PRP chromatography
# Setting: linear fit, 1 mL
Compound,"logD 1,9-decadiene/water [log units]"
CC(C)C[C@@H]1NC(=O)[C@H](C)NC(=O)[C@H](CCC(=O)N2CCCC2)NC(=O)[C@@H](CCC(=O)N2CCCC2)NC(=O)[C@H](CC(C)C)NC(=O)[C@@H](CC(C)C)NC(=O)[C@H](CC(C)C)NC1=O,-1.67
CC(C)C[C@@H]1NC(=O)[C@H](CC(C)C)NC(=O)[C@@H](CC(C)C)NC(=O)[C@H](CC(C)C)NC(=O)[C@H](C(C)C)NC(=O)[C@H](C)NC(=O)[C@H](C)NC1=O,-0.684
CC(C)C[C@@H]1NC(=O)[C@H](CC(C)C)NC(=O)[C@@H](CC(C)C)NC(=O)[C@H](CC(C)C)NC(=O)[C@@H](CCC(=O)N2CCCC2)NC(=O)[C@H](C)NC(=O)[C@H](C)NC1=O,-1.84
CC(C)C[C@@H]1NC(=O)[C@H](CC(C)C)NC(=O)[C@@H](CC(C)C)NC(=O)[C@@H](C(C)C)NC(=O)[C@H](C(C)C)NC(=O)[C@H](CC(C)C)NC(=O)[C@@H](CC(C)C)NC1=O,1.97

# Sample 2
# Cell line: HaCaT
# Concentration: 100 µM
# Time: 18 h
SMILES,viability [%]
CC(NCCC(c1ccccc1)c1ccccc1)c1ccccc1 (stereo not shown),14.9
CC1CNc2c(cccc2S(=O)(=O)N[C@@H](CCCNC(=N)N)C(=O)N2CC[C@@H](C)C[C@@H]2C(=O)O)C1 (stereo partly shown),108
CN1C(C(=O)Nc2ccccn2)=C(O)c2sc(Cl)cc2S1(=O)=O,70.4

# Sample 3
# Structure (SMILES): CCC(=O)N[C@@H]1CC[C@H](C(=O)N(C)c2ccc(-c3nc4ccccc4o3)cc2)C1
# Observed: cell-free assay
# Technique: competition with immobilised ligand
# Concentration: 1 µM
target,remaining binding [%]
"PLK2 (Homo sapiens, UniProt Q9NYY3)",100
"CLK3 (Homo sapiens, UniProt P49761)",100
"PAK6 (Homo sapiens, UniProt Q9NQU5)",100
"EPHA7 (Homo sapiens, UniProt Q15375)",100

# Sample 4
# Cell line: mouse MPNST tumor cells
# Technique: high-content nuclear imaging
# Refers to: cell number
# Concentration: 10 µM
# Time: 12 h
# Setting: mean of 2 replicates
# Relative to: plate mean
# Reading: higher = more cells
SMILES,nuclei count
CCCCCCCCCCCCCCCc1cccc(OCC(=O)NCCO)c1,0.577 z-score
C[C@]12CC[C@@H]3c4ccc(O)cc4C[C@@H](CCCCCCCCC[S+]([O-])CCCC(F)(F)C(F)(F)F)[C@H]3[C@@H]1CC[C@@H]2O (stereo partly shown),4.94 z-score and 2.75 z-score
Cc1ccc(Sc2cncc3sc(C(N)=O)cc23)cc1,0.0799 z-score
C=C(CC(=O)OCCCCCCCC)C(=O)O,-0.566 z-score

# Sample 5
# Compound: Oc1cccc(-c2nc(N3CCOCC3)c3oc4ncccc4c3n2)c1
# Observed: enzyme activity
# Action: inhibitor
# Concentration: 0.5 µM
# Relative to: control
target,remaining activity
"TGFBR2 (Homo sapiens, UniProt P37173)",102%
"IKBKB (Homo sapiens, UniProt O14920)",98.3%
"DAPK2 (Homo sapiens, UniProt Q9UIK4)",117%
"IKBKE (Homo sapiens, UniProt Q14164)",98.8%
"Cyclin-dependent kinase 5, with p25 (CDK5, Homo sapiens, UniProt Q00535)",77.9%
"NEK2 (Homo sapiens, UniProt P51955)",88.6%
"Protein kinase C beta type, isoform beta-I (PRKCB, Homo sapiens, UniProt P05771)",97.8%
"STK10 (Homo sapiens, UniProt O94804)",92.1%
"CAMKK2 (Homo sapiens, UniProt Q96RR4)",79.8%
"PRKACA (Homo sapiens, UniProt P17612)",99.5%
"Tyrosine-protein kinase Lyn, isoform B (LYN, Homo sapiens, UniProt P07948)",98.3%
"CAMK2D (Homo sapiens, UniProt Q13557)",96.2%
"GRK3 (Homo sapiens, UniProt P35626)",110%
"TGFBR1 (Homo sapiens, UniProt P36897)",95%
"STK11 (Homo sapiens, UniProt Q15831)",86.4%
"DAPK1 (Homo sapiens, UniProt P53355)",78%
"STK39 (Homo sapiens, UniProt Q9UEW8)",105%
"OXSR1 (Homo sapiens, UniProt O95747)",93.2%
"PRKCA (Homo sapiens, UniProt P17252)",103%
"cGMP-dependent protein kinase 1, isoform beta (PRKG1, Homo sapiens, UniProt Q13976)",109%

# Sample 6
# Host: mouse
# Matrix: microsomes or S9
# Concentration: 2 µM
# Time: 0.5 h
Structure (SMILES),remaining compound [%]
CCc1c(OCC(=O)Nc2cc(OC)c(OC)c(OC)c2)c(=O)ccn1CCO,84.7
CC(C)n1c(CNC(=O)c2cc(-c3ccco3)n[nH]2)nc2ccccc21,15.8
Cc1cc(C)n2nc(C(=O)N3C[C@@H](N)C[C@H]3C(=O)NC(C)C)cc2n1,81.9

# Mixed results
SMILES,target or system,host,dose,concentration,setting,endpoint,value
Cl.O=C1[C@H]2CCCC[C@H]2C(=O)N1CCCCN1CCN(c2nsc3ccccc23)CC1,bovine turbinate cells,,,concentration not given,,viability,94%
CC(C)n1cnc(-c2ccc(F)cc2)c1-c1ncc(C(=O)Nc2ccc(N3CCN(C)CC3)cc2)[nH]1,,"human, idiopathic pulmonary fibrosis",30 mg once daily,,"trial, treatment-emergent",patients with Weight increased,0%

# Excerpt of the above (sample 5):
target,remaining activity
"NEK2 (Homo sapiens, UniProt P51955)",88.6%
"Protein kinase C beta type, isoform beta-I (PRKCB, Homo sapiens, UniProt P05771)",97.8%
"STK10 (Homo sapiens, UniProt O94804)",92.1%
"CAMKK2 (Homo sapiens, UniProt Q96RR4)",79.8%
